{"data": "Results collected from several papers", "note": "Each numbered part is a random draw from the data of one study; scales do not carry over between parts."}
{"data": "Sample 1", "target": "Prothrombin, mature alpha-thrombin (F2, Homo sapiens, UniProt P00734)", "technique": "aptamer microarray, sandwich", "form": "DNA with 2'F-ANA", "sample": "in vitro", "tested at": "200 nM", "setting": "whole 15-mer aptamer, many near background", "added": "Cy3 exosite-II aptamer, 400 nM", "direction": "higher = stronger binding", "oligonucleotide": "GGTTGGTGTGGTTGG"}
{"Modification": "2'F-ANA at 1 4 10 11 12 13 15", "mean fluorescence intensity": "56.8 a.u."}
{"Modification": "2'F-ANA at 1 7 8 10 14", "mean fluorescence intensity": "68.1 a.u."}
{"Modification": "2'F-ANA at 1 2 4 5 7 9 10 15", "mean fluorescence intensity": "64.3 a.u."}
{"Modification": "2'F-ANA at 1 2 3 7 8 9 13 14", "mean fluorescence intensity": "99.4 a.u."}
{"Modification": "2'F-ANA at 1 2 3 5 6 8 9 11 12", "mean fluorescence intensity": "104 a.u."}
{"Modification": "2'F-ANA at 2 4 5 6 7 9 13", "mean fluorescence intensity": "51.2 a.u."}
{"Modification": "2'F-ANA at 3 6 10 14 15", "mean fluorescence intensity": "362 a.u."}
{"Modification": "2'F-ANA at 3 6 7 9 10 15", "mean fluorescence intensity": "423 a.u."}
{"Modification": "2'F-ANA at 4 9 11 12 14", "mean fluorescence intensity": "106 a.u."}
{"Modification": "2'F-ANA at 5 6 7 8 9 11 12 14", "mean fluorescence intensity": "51.5 a.u."}
{"data": "Sample 2", "target": "RING finger protein unkempt homolog, zinc fingers 1-6, SBP tag (UNK, Homo sapiens, UniProt Q9C0B0, residues 30-357)", "technique": "RNA Bind-n-Seq", "form": "RNA", "sample": "in vitro", "tested at": "100 nM", "setting": "RNA with constant flanks, vertebrate orthologous sites, ends assumed", "relative to": "input RNA pool", "direction": "higher = stronger binding", "shared flanks, not repeated": "GGGAGUUCUACAGUCCGACGAUC … CAACAGAGGAUUGAGCAUCA", "chain of UniProt Q9C0B0 (30-357, looked up)": "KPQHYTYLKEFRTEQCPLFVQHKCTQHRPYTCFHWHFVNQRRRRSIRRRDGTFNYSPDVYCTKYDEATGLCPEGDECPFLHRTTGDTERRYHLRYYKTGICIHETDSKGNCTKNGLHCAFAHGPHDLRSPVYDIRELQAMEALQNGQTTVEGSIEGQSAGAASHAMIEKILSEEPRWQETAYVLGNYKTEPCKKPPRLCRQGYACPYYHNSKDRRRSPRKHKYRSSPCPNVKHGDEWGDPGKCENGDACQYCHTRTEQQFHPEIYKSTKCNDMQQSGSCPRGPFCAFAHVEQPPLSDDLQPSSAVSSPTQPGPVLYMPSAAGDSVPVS"}
{"Oligonucleotide": "AGAAAAUUUUAAUCAAGAAUCUGAAGGUAGAAAUACAGGACCAUGGUUAUCUUCCUCACUUAGAAAUAGAUGCACACCUUUGUUCUCUAGAAGGAGGCGAGAGGGAAGAGAUGAAUCUUC", "bound/input enrichment [ratio]": 0.775}
{"Oligonucleotide": "UUUUCUUUUUUUGCACUGACAGUGUUUGUCUUGAGGAUCUUCUGAGGAAGAGGGGUGCUGUGGCAGUGGCACCUGGGUGCCUGGCCUCCAGUGUCCCAUCCCCUUCACCCCACUUGGCUC", "bound/input enrichment [ratio]": 0.219}
{"Oligonucleotide": "AAUGUGGCUUUUGCUUCAUUAAGAGUAAAAAAAUAGCCCCCUCAAUUUAAAAUGUCUAAAUAGCUAUUUUAAAAAUCAAAAUGUUUAAAUUUUGUAAAUCACCUGAUGUCAGUACACACC", "bound/input enrichment [ratio]": 0.362}
{"Oligonucleotide": "AGGAAAUGCUGGCUGCAAACCCUCAGGAUCGUCCAGAUGCUUUUGAACUAGAACUCAGAUUAGUACAAAUUGCAUUUAAAGAUAACAGCUGGGAAACGUGACACAUAUAUUAUUUGCAAA", "bound/input enrichment [ratio]": 1.53}
{"Oligonucleotide": "UUAAUGAUCAUAUUGUAUGUAGAGAAAAAUUUUCAUUGUGGAAUUCCCUAGCAAUUUAUUUAGACUUCAUUUUUAAAAUUCAAGCUUACUGUAUUAGGCAUUUUUAGCUCAUAAUUAAAA", "bound/input enrichment [ratio]": 6.66}
{"Oligonucleotide": "CUGUUGUGUGAAAUAUGUCUACCAAGAGAAGUAUCACACCAUAAACAUUGUCAAAUAAUUUAGCUACAAUCUUCUUAGAUACCAAAUUAUAUGUCAAGCAUUUAAAGUGAGUUUGAGAUG", "bound/input enrichment [ratio]": 0.42}
{"Oligonucleotide": "GUUGGGUCAUGAUGCAUACAGGCUAGGUCAUGAAGCAUACAGGUUAGGACAAGACCCCUAUAGAUUAGGCCAUGAUCCCUACAGACUAACUCCUGAUCCCUACAGGAUGUCACCUAGACC", "bound/input enrichment [ratio]": 0.607}
{"Oligonucleotide": "GUUGUGACCCAUUUAACAUCCAUAAAAAGCUAGCCAAAAAGAAUCUGCAUGUCAUUGACUUGGAUGAUGCCACUUUUCUGAGUGCAAAAUUUGGAAGGCAGCUGGUGCCUGGUUGGAAGC", "bound/input enrichment [ratio]": 0.49}
{"data": "Sample 3", "target": "RNA binding protein fox-1 homolog 2, RRM domain, GST-SBP tag (RBFOX2, Homo sapiens, UniProt O43251-10, residues 100-194)", "technique": "RNA Bind-n-Seq", "form": "RNA", "sample": "in vitro", "tested at": "365 nM", "setting": "natural RNA segment, single round, ends assumed", "relative to": "no-protein control", "direction": "higher = stronger binding", "shared flanks, not repeated": "GGGAGUUCUACAGUCCGACGAUC … UGGAAUUCUCGGGUGCCAA", "Construct (chain)": "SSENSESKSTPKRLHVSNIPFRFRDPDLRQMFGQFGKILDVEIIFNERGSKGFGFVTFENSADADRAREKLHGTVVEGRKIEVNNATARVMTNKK"}
{"Oligonucleotide": "UAUUCCAAACAAAAUAACCGUAGAAGAAUACAACUGAUAAAAAUAAAAUAACCCAUUUGUUCACAGUUCUAAAACUAACUGGUUAAUAGGCUAAUGAUGUUCACUCAUUC", "RBNS enrichment (R)": 0.33}
{"Oligonucleotide": "UACACUCCCCAAAACACCCCUUUCCAGUUACAAUUAGCAUCGUGAUCCAAGCAGAUGCCACAUGGAAGAGGAAUCGCCAUUUACUCAGAAAAAAUGUCCCUUACAGGAAC", "RBNS enrichment (R)": 0.207}
{"Oligonucleotide": "AGCUGGCUGGGGGGAAGGGCUUGUUCCCUACAGUGUCUGUUCUGUGAAGUUUGUUACGUGUAAGGGAAGCUGAAGUUCUUGUAUCUUUAAAGAGGAAAUCUUAUUUAACC", "RBNS enrichment (R)": 0.699}
{"Oligonucleotide": "AGGCUCAUUCUGAGUUGAUGAAAAGUCUUGUUUGGACUUCUGCAGGGUUUGACUCCCUGGACACUCUGAGUGGGGUGGUCAUCCAGGCAGUACUAUUAAUGACCUCCCCA", "RBNS enrichment (R)": 0.293}
{"Oligonucleotide": "AUAGAGAAACUACAGCUCUGCCCAUUGUCCUGGGGUCCUGGAACUUCGUCCAGUGUUAAGAACUGAGCCAAGGAGAAGCACGAGCAGCCUUCGCACCUGGAGGGUCAGAA", "RBNS enrichment (R)": 1.32}
{"Oligonucleotide": "AAUGGGAAUUCAUAAAGCAAGUUAGGAUUCACAAAUGUAGUGACCUAGUCCUUGGAGCUAAACUGGGAGUGGGUGCCAGGUGGAGGGUAGCAGGUCUGACCAGCCCUACA", "RBNS enrichment (R)": 1.8}
{"Oligonucleotide": "CCAUAAACAGAGAUGGUCCUGAACUCUGGAGAGAUCCUUCCCUGAUCCUUUCGGACGACUACUUGGAGCCAUAAGUAACCUCAGCAAAAACGAGGCCUCUGCAAGCCACU", "RBNS enrichment (R)": 0.259}
{"Oligonucleotide": "UGUGCGAUGGCAGAGCAGCAUCCAAGCAGAGAUCAGAUGUCCUCUUCAGUCUGUGGGCGGGCGAUUGUCAGUGGGAUUGGUUAAAAAGCUCUUACCAGAGCUGGCUGGCC", "RBNS enrichment (R)": 1.29}
{"Oligonucleotide": "CUGAAAUGUUGCUGAAAAGCAUGGUGCUGGUAACAGUUCAACAAUCCGUGGCUGCUCAUUCUUGCCUACUUUACUCUCCCACUGAAGCAGGUUAGCGUUGAAGGUGGUAU", "RBNS enrichment (R)": 6.55}
{"Oligonucleotide": "UCCUGUUCCCUUUGACUUCAGCUGCCUGAAACAGCCAUGUCCAAGUUCUUCACCUCUAUCCAAAGGACUUGAUUUGCAUGGUAUUGGAUAAAUCAUUUCAGUAUCCUCUC", "RBNS enrichment (R)": 2.44}
{"Oligonucleotide": "AUUUUGCAUUUAAAAUGUAAUUACUCUUAGUAUUGUACAGCCCUAUAAUGUAUGAGAACUAGUUUCACAUCCUUUGAAACUAAUCUCUUUCAUUGGGGAGGAUACAACUU", "RBNS enrichment (R)": 0.239}
{"data": "Mixed results"}
{"Substance": "PhoQ, residues 284 288 289 292 302 303 ALSMDL", "target": "PhoP, residues 12 14 15 18 19 NYFTV (Escherichia coli, UniProt P23836)", "assay": "Sort-seq, item: YFP reporter", "system": "E. coli", "setting": "PhoQ-PhoP variant library, added: 10 µM Mg2+", "scale": "relative to: high Mg2+ state, higher = stronger signaling", "endpoint": "fold induction", "value": 22.8}
{"note": "A few entries again (sample 1):"}
{"Modification": "2'F-ANA at 1 2 3 5 6 8 9 11 12", "mean fluorescence intensity": "104 a.u."}
{"Modification": "2'F-ANA at 1 2 4 5 7 9 10 15", "mean fluorescence intensity": "64.3 a.u."}
{"Modification": "2'F-ANA at 4 9 11 12 14", "mean fluorescence intensity": "106 a.u."}
{"Modification": "2'F-ANA at 5 6 7 8 9 11 12 14", "mean fluorescence intensity": "51.5 a.u."}
{"Modification": "2'F-ANA at 2 4 5 6 7 9 13", "mean fluorescence intensity": "51.2 a.u."}
